Assay results from different studies.
A part holds a random share of what one study measured. Positions count from the first letter of the parent shown.
Sequence of UniProt P08069 (whole entry, looked up): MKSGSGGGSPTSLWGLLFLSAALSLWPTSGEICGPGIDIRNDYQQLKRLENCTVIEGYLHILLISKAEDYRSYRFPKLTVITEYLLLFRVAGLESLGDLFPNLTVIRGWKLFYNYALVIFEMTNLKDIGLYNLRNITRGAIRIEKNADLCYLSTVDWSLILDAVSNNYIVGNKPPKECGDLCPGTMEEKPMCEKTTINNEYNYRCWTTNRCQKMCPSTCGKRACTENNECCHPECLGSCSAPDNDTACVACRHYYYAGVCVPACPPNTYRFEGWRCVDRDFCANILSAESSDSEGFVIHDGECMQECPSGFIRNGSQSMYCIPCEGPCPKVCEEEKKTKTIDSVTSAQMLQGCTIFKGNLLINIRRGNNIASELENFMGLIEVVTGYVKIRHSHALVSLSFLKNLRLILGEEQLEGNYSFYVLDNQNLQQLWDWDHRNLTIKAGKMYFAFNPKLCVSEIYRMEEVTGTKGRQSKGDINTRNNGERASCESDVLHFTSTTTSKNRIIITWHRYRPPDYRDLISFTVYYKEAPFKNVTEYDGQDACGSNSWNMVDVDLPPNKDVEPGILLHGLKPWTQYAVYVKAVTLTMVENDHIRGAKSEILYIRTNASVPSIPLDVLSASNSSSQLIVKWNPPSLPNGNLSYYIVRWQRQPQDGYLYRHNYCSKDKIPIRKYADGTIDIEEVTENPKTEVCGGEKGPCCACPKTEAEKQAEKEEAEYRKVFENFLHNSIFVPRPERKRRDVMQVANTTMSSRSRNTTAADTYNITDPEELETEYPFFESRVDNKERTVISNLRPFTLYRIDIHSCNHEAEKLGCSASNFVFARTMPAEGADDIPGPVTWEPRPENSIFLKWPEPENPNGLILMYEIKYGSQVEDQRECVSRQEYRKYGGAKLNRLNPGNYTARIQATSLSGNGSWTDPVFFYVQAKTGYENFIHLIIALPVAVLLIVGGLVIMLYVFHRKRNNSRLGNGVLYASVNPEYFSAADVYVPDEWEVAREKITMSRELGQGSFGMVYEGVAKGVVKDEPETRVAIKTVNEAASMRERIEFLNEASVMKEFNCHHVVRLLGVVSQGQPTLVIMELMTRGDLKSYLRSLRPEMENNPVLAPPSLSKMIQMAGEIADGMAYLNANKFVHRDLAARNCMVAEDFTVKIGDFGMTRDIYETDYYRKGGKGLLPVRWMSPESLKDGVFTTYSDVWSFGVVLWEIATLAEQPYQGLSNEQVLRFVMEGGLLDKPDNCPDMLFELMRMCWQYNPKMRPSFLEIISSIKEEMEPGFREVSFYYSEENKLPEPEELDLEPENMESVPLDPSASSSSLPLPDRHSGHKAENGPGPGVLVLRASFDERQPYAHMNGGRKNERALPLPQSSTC

Study 1 — target: UBE2W UBC core domain (UniProt Q96B02); method: yeast two-hybrid; sample: yeast; setting: mostly zero background; reference: not given; direction: higher = stronger interaction; measurement: lacZ reporter activity
B1: RNF175 RING domain (UniProt Q8N4F7); chain LPTRSLSDNICAVCGQKIIVELDEEGLIENTYQLSCNHVFHEFCIRGWCIVGKKQTCPYCKEKVDLKRMIS
B2: TRIM15 RING domain (UniProt Q9C019); chain SLKVVHELPACTLCAGPLEDAVTIPCGHTFCRLCLPALSQMGAQSSGKILLCPLCQEEEQAETPMA
B3: RNF43 RING domain (UniProt Q68DV7); chain SGSSCSSAPVCAICLEEFSEGQELRVISCLHEFHRNCVDPWLHQHRTCPLCMFNITEGDSFS
B4: RNF32 RING domain (UniProt Q9H0A6); chain SLLQGDSVQPCPICKEEFELRPQVLLSCSHVFHKACLQAFEKFTNKKTCPLCRKNQYQTRVIH
B5: PHF7 RING domain (UniProt Q9BWX1); chain IQHGHVGEESCILCCEDLSQQSVENIQSPCCSQAIYHRKCIQKYAHTSAKHFFKCPQCNNRKEFPQEML
B6: TRIM52 RING domain (UniProt Q96A61); chain PMQTLQEEAVCAICLDYFKDPVSISCGHNFCRGCVTQLWSKEDEEDQNEEEDEWEEEEDEEAV
B7: MSL2 RING domain (UniProt Q9HCI7); chain LLPYFRQSLSCCVCGHLLQDPIAPTNSTCQHYVCKTCKGKKMMMKPSCSWCKDYEQFEENKQ
B8: TRIM3 RING domain (UniProt O75382); chain VQPMDKQFLVCSICLDRYQCPKVLPCLHTFCERCLQNYIPAQSLTLSCPVCRQTSILPEQGV
B9: PEX2 RING domain (UniProt P28328); chain DNTLATSGKECALCGEWPTMPHTIGCEHIFCYFCAKSSFLFDVYFTCPKCGTEVHSLQPLK
Residues (chain): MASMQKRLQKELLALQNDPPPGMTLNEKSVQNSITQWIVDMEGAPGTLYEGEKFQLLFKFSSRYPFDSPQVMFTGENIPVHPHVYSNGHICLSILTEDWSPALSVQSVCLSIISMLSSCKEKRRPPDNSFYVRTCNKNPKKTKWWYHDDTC
B1 (RNF175 RING domain): 0
B2 (TRIM15 RING domain): 0
B3 (RNF43 RING domain): 0
QLQDEEDDSLCRICMDAVIDCVLLECGHMVTCTKCGKRMSECPICRQYVVRAVHVF (RNF34 RING domain (UniProt Q969K3)): 0
B4 (RNF32 RING domain): 0
B5 (PHF7 RING domain): 0
B6 (TRIM52 RING domain): 0
LKQVSIRENCCSLCCDEVADTQLKPCGHSDLCMDCALQLETCPLCRKEIVSRIRQI (RSPRY1 RING domain (UniProt Q96DX4)): 0
B7 (MSL2 RING domain): 0
B8 (TRIM3 RING domain): 0
B9 (PEX2 RING domain): 0

Study 2 — target: CCNE1, cyclin fold, Cln2 fusion (human); method: yeast growth competition, sequencing; sample: yeast; setting: strong parent motif; reference: not given; direction: higher = stronger binding; measurement: normalised enrichment score
Parent: viral docking peptide; KGVKRKLFAEDSS; partner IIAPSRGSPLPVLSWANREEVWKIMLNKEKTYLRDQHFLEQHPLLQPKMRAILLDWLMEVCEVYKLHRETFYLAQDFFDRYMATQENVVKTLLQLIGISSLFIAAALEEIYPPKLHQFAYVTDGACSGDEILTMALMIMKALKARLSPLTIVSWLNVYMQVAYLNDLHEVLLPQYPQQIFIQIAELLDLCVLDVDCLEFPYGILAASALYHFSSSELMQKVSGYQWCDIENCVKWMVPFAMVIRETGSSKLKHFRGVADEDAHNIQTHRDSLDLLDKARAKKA
KGVKRKQFAEDSS [L7Q]: 0.122
KGVKRKLFAHDSS [E10H]: 6.64
KGIKRKLFAEDSS [V3I]: 4.51

Study 3 — method: RNAcompete; molecule type: RNA; sample: in vitro; tested at: 20 nM; setting: 7-mer, probes averaged, single round; reference: mean of 7-mers; direction: higher = stronger binding; measurement: 7-mer Z-score
Target: PABPC1L2, full length, GST fusion (mouse, UniProt A0ABA7IW68)
Target sequence (chain): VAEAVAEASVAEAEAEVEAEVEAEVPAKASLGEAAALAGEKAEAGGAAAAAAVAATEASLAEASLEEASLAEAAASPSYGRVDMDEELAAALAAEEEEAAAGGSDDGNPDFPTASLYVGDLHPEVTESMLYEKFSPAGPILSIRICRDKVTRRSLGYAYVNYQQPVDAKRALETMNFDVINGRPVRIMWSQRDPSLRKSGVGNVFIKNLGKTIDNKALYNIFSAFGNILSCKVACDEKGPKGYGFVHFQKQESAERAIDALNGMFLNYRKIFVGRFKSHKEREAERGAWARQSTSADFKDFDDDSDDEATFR
CAAACAA: 2.72
UAGGUAC: -0.139
ACGGGGA: 0.236
UUUAGAA: 0.296
CUGAGUA: -0.121
AAUCUCC: -0.119
GCAUGAG: 0.0805
UCAUCCA: -0.296

Single results of other studies
COC[C@H]1OC(=O)c2coc3c2[C@@]1(C)C1=C(C3=O)[C@@H]2CCC(=O)[C@@]2(C)C[C@H]1OC(C)=O
remaining activity (Insulin-like growth factor 1 receptor (IGF1R, Homo sapiens, UniProt P08069); enzyme activity, inhibitor; 0.5 µM; reference: control): 81.9%

Excerpt of the above (study 1):
B6 (TRIM52 RING domain): 0
LKQVSIRENCCSLCCDEVADTQLKPCGHSDLCMDCALQLETCPLCRKEIVSRIRQI (RSPRY1 RING domain (UniProt Q96DX4)): 0
